{"data": "Measured values from different studies", "target": "5-hydroxytryptamine receptor 2B (HTR2B, Homo sapiens, UniProt P41595)", "note": "Protocols differ between the studies behind these lines.", "UniProt P41595, sequence (whole entry, looked up)": "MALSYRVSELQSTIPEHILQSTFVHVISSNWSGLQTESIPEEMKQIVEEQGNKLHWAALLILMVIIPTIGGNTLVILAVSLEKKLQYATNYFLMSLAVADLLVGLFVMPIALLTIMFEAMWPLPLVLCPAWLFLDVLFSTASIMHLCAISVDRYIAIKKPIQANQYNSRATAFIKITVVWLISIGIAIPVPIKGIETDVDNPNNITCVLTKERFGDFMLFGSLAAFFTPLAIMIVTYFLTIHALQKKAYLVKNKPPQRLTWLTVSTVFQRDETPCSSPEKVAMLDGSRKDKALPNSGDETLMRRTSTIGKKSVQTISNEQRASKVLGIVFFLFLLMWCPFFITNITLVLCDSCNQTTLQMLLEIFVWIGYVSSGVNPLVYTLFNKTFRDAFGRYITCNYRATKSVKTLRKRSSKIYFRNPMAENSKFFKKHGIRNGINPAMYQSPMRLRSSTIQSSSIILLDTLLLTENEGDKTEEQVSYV"}
{"Structure (SMILES)": "COc1cc2c3c(c1OCc1ccc(Br)cc1)-c1cc4c(cc1CC3N(C)CC2c1ccccc1)OCO4 (stereo not drawn)", "test": "radioligand binding", "setting": "10 µM, together with: [3H]LSD", "inhibition": "inactive"}
{"Structure (SMILES)": "O=C(CN1CCO[C@H](COc2ccccc2)C1)N1CCc2ccccc21", "test": "radioligand binding", "setting": "concentration not given, together with: [3H]LSD", "inhibition": "74.4%"}
{"Structure (SMILES)": "CCCC[C@H](NC(=O)[C@H](C)c1c(C)[nH]c2ccc(O)cc12)c1ncc(-c2cc3ccccc3nc2OC)[nH]1", "setting": "1 µM", "inhibition": "50%"}
{"Structure (SMILES)": "Cc1ccnc(C)c1OC[C@H]1CN(CCN2CCc3ccccc32)CCO1", "test": "radioligand binding", "setting": "concentration not given, together with: [3H]LSD", "inhibition": "61.2%"}
{"Structure (SMILES)": "O=C(NO)c1ccc(CN2CCCCc3ccccc32)c(F)c1", "test": "radioligand binding, radioligand displacement", "setting": "10 µM, mean of replicates", "inhibition": "48.2%"}
{"Structure (SMILES)": "CCN1/C(=C/C(C)=O)Sc2ccc(F)cc21", "setting": "10 µM", "inhibition": "39.1%"}
{"Structure (SMILES)": "CCS(=O)(=O)c1nc(S(=O)(=O)c2ccccc2Cl)c(N2CCN(C)C(=O)[C@H]2C)s1", "setting": "10 µM", "inhibition": "4.94%"}
{"Structure (SMILES)": "O=C(CN1CCO[C@H](COc2cccc(Cl)c2)C1)N1CCc2ccccc21", "test": "radioligand binding", "setting": "concentration not given, together with: [3H]LSD", "inhibition": "88.8%"}
{"Structure (SMILES)": "OCCCN1CC[C@@H]2C[C@H]1c1cc(-c3ccc(C(F)(F)F)cc3)ccc12", "test": "radioligand binding, PDSP competition binding", "setting": "10 µM", "inhibition": "< 50%"}
